Measurements collected from several papers.
Each line is one published result; not all experiments were run side by side. Numbers after ± are the reported error.

Under “cobalt in faeces”, O.O.O.O.O.O.[Cl-].[Cl-].[Co+2] is recorded as 47.5 µg/g (rat female, faeces; oral gavage, 10 mg/kg single, day 1, pooled samples; baseline: vehicle control subtracted).
CC1(C)c2nc(-c3ccc(F)cc3)c(Nc3ccc(F)cc3)n2CCN1C(=O)CN — result for “concentration at 24 h”: 29 nM (NMRI mouse Plasmodium berghei-infected, blood; oral, 1 mg/kg, 24 h, monotherapy).
For COc1ccc(-c2c(-c3ccc(C#N)c(F)c3)nc(N3CCC(N)CC3)n(C)c2=O)cc1F, “treatment-related adverse event incidence” read 0% (refers to: Thrombocytopenia; relapsed/refractory marginal zone lymphoma patients; oral, 60 mg, grade 3 to 4, dose expansion).
C[C@@H]1NC(=O)[C@H](CCCCNC(=O)CO/N=C/C(=O)NCCCC[C@@H]2NC(=O)[C@@H](Cc3ccccc3)NC(=O)[C@H](CC(=O)O)NC(=O)CNC(=O)[C@H](CCCNC(=N)N)NC2=O)NC(=O)CNC(=O)[C@@H]2CCCN2C(=O)[C@H](CCCCNC(=O)CO/N=C/C(=O)NCCCC[C@@H]2NC(=O)[C@@H](Cc3ccccc3)NC(=O)[C@H](CC(=O)O)NC(=O)CNC(=O)[C@H](CCCNC(=N)N)NC2=O)NC(=O)[C@H](CCCCNC(=O)CCNC(=O)CCNC(=O)CCNC(=O)[C@H](CCCCN)NC(=O)[C@H](Cc2ccccc2)NC(=O)CNC(=O)CN2CCCNCCNCCCNCC2)NC(=O)[C@H](CCCCNC(=O)CO/N=C/C(=O)NCCCC[C@@H]2NC(=O)[C@@H](Cc3ccccc3)NC(=O)[C@H](CC(=O)O)NC(=O)CNC(=O)[C@H](CCCNC(=N)N)NC2=O)NC(=O)CNC(=O)[C@@H]2CCCN2C(=O)[C@H](CCCCNC(=O)CO/N=C/C(=O)NCCCC[C@@H]2NC(=O)[C@@H](Cc3ccccc3)NC(=O)[C@H](CC(=O)O)NC(=O)CNC(=O)[C@H](CCCNC(=N)N)NC2=O)NC1=O [copper-64 labelled] gave a tissue uptake of 14.5 ± 0.51 %ID/g (PET imaging; mouse, U-87 MG tumour xenograft, liver; intravenous, 24 h).
O=S(=O)(Nc1ccccc1)c1ccc(NC(=S)Nc2ccccc2)cc1: “relative organ weight” 0.5% (male mice, heart; oral, 20 mg/kg daily 14 days; baseline: body weight).
For Cn1c(-c2ccc(C(N)=O)cc2F)nnc1C(C)(C)Oc1c(F)cc(Cl)cc1F, “nervous system disorder TEAE” read 16.7% (human; oral, 1 mg, single ascending dose).
O=C1Nc2cc3[nH]nc(-c4ccncc4)c3cc2CN1Cc1ccccc1 — result for “patients with QTc prolongation”: 0% (CTCAE v4.03; human, relapsed or refractory advanced solid tumours; intravenous, 0.45 mg/kg, pooled schedules).
For CCc1ccc(CC/C=C/c2ccc3c(c2)C(=O)CC3)cc1, the Calcium was 2.42 mM (Sprague-Dawley rat, male; oral, 120 mg/kg/day, 14 days).
CC(C)(C)c1cc(-n2nc3ccccc3n2)c(O)c(C(C)(C)C)c1 — result for “daily dermal exposure dose”: 15.1 ng/kg/day (human aged 11-16 years; concentration not given, spray sunscreen, 95th percentile).
CC[C@H](C)[C@H](NC(=O)[C@H](Cc1ccccc1)NC(=O)[C@H](CCC(=O)O)NC(=O)[C@H](CCCNC(=N)N)NC(=O)[C@H](C)NC(=O)[C@H](C)NC(=O)[C@H](CCC(N)=O)NC(=O)[C@H](CCC(=O)O)NC(=O)[C@H](CCC(=O)O)NC(=O)[C@H](CC(C)C)NC(=O)[C@H](Cc1ccc(O)cc1)NC(=O)[C@H](CO)NC(=O)[C@H](CO)NC(=O)[C@@H](NC(=O)[C@H](CC(=O)O)NC(=O)[C@H](CO)NC(=O)[C@@H](NC(=O)[C@H](Cc1ccccc1)NC(=O)[C@@H](NC(=O)CNC(=O)[C@H](CCC(=O)O)NC(=O)[C@H](C)NC(=O)CCc1cnc[nH]1)[C@@H](C)O)[C@@H](C)O)C(C)C)C(=O)N[C@@H](C)C(=O)N[C@@H](Cc1c[nH]c2ccccc12)C(=O)N[C@@H](CC(C)C)C(=O)N[C@H](C(=O)N[C@@H](CCCNC(=N)N)C(=O)NCC(=O)N[C@@H](CCCNC(=N)N)C(=O)N[C@@H](CCCCNC(=O)COCCOCCNC(=O)COCCOCCNC(=O)CC[C@H](NC(=O)CCCCCCCCCCCCCCCCC(=O)O)C(=O)O)C(=O)NCC(=O)NCC(=O)N[C@@H](CO)C(=O)N[C@@H](CCSC)C(=O)N[C@H](C(=O)N[C@@H](CCCCNc1c(NCCCCCN(O)C(=O)CCC(=O)NCCCCCN(O)C(=O)CCC(=O)NCCCCCN(O)C(C)=O)c(=O)c1=O)C(=O)O)C(C)C)C(C)C [zirconium-89 labelled] has a tissue uptake of 0.39 %ID/g (ex vivo gamma counting; male Sprague-Dawley rats, bone marrow; intravenous, 1 nmol, 72 h, mean of 3 animals).
CN1CC[C@@H](c2c(O)cc(O)c3c(=O)cc(-c4ccc(C(F)(F)F)cc4Cl)oc23)[C@@H]1CO: “patients with adverse event” 0% (refers to: Epistaxis; relapsed B-cell malignancies; oral, 200 mg, grade 3-4, intermittent dosing).
With C[C@H]1CN(C(=O)CC#N)[C@]12CCN(c1ncnc3[nH]ccc13)C2 the NOAEL was 3 mg/kg (rat, male; oral, 6 months, repeated dosing).
COc1cc2c(Oc3ccc4[nH]c(C)cc4c3F)ccnc2cc1OCC1(N)CC1: “grade 3 Anorexia” 0% (paediatric recurrent refractory sarcoma; concentration not given, whole group).

Excerpt of the above:
CC[C@H](C)[C@H](NC(=O)[C@H](Cc1ccccc1)NC(=O)[C@H](CCC(=O)O)NC(=O)[C@H](CCCNC(=N)N)NC(=O)[C@H](C)NC(=O)[C@H](C)NC(=O)[C@H](CCC(N)=O)NC(=O)[C@H](CCC(=O)O)NC(=O)[C@H](CCC(=O)O)NC(=O)[C@H](CC(C)C)NC(=O)[C@H](Cc1ccc(O)cc1)NC(=O)[C@H](CO)NC(=O)[C@H](CO)NC(=O)[C@@H](NC(=O)[C@H](CC(=O)O)NC(=O)[C@H](CO)NC(=O)[C@@H](NC(=O)[C@H](Cc1ccccc1)NC(=O)[C@@H](NC(=O)CNC(=O)[C@H](CCC(=O)O)NC(=O)[C@H](C)NC(=O)CCc1cnc[nH]1)[C@@H](C)O)[C@@H](C)O)C(C)C)C(=O)N[C@@H](C)C(=O)N[C@@H](Cc1c[nH]c2ccccc12)C(=O)N[C@@H](CC(C)C)C(=O)N[C@H](C(=O)N[C@@H](CCCNC(=N)N)C(=O)NCC(=O)N[C@@H](CCCNC(=N)N)C(=O)N[C@@H](CCCCNC(=O)COCCOCCNC(=O)COCCOCCNC(=O)CC[C@H](NC(=O)CCCCCCCCCCCCCCCCC(=O)O)C(=O)O)C(=O)NCC(=O)NCC(=O)N[C@@H](CO)C(=O)N[C@@H](CCSC)C(=O)N[C@H](C(=O)N[C@@H](CCCCNc1c(NCCCCCN(O)C(=O)CCC(=O)NCCCCCN(O)C(=O)CCC(=O)NCCCCCN(O)C(C)=O)c(=O)c1=O)C(=O)O)C(C)C)C(C)C [zirconium-89 labelled] has a tissue uptake of 0.39 %ID/g (ex vivo gamma counting; male Sprague-Dawley rats, bone marrow; intravenous, 1 nmol, 72 h, mean of 3 animals).
